Published values collected from several papers.
Compare with care: the assays were run in different laboratories. Values joined by “and” are separate records of one study, mostly repeats; a detail may differ. ± marks the error that the study gave.
rep main protease: Replicase polyprotein 1ab, main protease (rep, Porcine epidemic diarrhea virus, UniProt P0C6Y4)
ADRA1D: Alpha-1D adrenergic receptor (ADRA1D, Homo sapiens, UniProt P25100)
Chain of UniProt Q8IWT6 (whole entry, unmodified, looked up): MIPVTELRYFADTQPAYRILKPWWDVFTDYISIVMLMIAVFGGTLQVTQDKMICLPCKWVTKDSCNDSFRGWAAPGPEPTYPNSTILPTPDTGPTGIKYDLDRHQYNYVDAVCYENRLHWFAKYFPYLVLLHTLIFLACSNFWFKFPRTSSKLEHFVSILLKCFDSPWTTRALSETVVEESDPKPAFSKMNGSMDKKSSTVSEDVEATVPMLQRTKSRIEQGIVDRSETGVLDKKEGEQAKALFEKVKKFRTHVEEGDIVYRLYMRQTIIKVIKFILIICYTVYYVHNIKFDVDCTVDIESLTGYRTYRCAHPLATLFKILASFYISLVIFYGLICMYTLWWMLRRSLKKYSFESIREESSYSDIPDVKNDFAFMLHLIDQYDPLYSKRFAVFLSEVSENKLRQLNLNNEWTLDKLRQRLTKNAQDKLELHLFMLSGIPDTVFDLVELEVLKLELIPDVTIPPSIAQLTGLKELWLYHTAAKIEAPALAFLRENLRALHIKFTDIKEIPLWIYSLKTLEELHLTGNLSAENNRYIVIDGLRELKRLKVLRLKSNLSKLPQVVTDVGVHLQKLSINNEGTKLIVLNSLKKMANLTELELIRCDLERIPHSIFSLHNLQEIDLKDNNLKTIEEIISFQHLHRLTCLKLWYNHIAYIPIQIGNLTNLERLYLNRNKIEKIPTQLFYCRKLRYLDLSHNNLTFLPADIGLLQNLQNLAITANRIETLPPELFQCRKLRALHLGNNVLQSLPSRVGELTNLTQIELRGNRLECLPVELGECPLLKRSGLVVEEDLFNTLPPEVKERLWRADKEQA
Chain of UniProt Q93009 (whole entry, unmodified, looked up): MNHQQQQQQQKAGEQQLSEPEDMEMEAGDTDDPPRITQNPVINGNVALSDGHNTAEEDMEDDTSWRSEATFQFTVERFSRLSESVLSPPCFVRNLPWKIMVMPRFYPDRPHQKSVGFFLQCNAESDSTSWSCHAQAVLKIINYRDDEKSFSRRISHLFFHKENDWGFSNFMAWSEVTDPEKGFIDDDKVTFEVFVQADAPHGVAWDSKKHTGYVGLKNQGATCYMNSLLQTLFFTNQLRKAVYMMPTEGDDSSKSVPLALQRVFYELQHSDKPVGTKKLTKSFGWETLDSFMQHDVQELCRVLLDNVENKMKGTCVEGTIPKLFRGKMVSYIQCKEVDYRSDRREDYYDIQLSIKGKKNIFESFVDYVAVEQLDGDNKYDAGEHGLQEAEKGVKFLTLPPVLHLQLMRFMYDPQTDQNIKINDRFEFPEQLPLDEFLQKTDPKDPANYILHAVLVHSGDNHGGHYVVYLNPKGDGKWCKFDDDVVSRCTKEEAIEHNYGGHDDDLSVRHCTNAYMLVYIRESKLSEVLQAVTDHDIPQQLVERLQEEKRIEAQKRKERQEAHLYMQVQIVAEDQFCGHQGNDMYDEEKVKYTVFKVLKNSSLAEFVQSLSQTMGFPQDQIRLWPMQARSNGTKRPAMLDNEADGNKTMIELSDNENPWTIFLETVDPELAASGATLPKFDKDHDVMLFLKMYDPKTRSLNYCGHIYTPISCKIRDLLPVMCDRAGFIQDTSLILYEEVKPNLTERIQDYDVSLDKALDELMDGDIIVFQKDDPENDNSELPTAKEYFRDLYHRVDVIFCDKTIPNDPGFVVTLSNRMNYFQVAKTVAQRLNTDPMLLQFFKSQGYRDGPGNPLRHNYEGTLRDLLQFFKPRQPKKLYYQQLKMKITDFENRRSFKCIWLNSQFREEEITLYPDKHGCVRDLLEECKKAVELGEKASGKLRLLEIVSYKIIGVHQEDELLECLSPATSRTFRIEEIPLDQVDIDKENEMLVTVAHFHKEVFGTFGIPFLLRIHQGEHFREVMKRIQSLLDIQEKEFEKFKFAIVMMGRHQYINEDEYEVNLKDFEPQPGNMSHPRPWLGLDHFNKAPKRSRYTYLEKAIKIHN
Chain of UniProt P25100 (whole entry, looked up): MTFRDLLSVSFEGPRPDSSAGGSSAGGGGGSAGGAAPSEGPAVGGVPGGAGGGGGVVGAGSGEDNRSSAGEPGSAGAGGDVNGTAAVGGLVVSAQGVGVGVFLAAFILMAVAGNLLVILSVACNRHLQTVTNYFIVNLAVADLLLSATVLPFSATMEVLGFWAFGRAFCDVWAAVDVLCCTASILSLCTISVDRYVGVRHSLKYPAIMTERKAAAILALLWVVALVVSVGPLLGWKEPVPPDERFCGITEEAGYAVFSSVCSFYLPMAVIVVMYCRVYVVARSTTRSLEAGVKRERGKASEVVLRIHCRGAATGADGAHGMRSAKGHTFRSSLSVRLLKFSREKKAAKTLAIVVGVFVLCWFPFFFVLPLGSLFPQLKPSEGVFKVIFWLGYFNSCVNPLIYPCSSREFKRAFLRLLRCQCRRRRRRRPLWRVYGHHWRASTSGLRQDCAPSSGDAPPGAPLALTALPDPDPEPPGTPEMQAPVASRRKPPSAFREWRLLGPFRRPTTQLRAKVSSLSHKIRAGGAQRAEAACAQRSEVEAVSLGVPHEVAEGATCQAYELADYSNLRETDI
Chain of UniProt P50613 (whole entry, looked up): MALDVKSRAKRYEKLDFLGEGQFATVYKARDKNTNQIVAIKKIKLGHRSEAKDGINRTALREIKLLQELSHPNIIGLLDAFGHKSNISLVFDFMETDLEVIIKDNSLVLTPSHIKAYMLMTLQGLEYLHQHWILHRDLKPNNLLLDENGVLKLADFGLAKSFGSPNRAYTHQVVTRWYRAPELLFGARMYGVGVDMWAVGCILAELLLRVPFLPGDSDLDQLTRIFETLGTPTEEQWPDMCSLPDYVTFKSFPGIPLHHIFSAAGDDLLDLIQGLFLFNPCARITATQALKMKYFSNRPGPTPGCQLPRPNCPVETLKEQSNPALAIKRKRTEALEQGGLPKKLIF
Chain of UniProt P54646 (whole entry, looked up): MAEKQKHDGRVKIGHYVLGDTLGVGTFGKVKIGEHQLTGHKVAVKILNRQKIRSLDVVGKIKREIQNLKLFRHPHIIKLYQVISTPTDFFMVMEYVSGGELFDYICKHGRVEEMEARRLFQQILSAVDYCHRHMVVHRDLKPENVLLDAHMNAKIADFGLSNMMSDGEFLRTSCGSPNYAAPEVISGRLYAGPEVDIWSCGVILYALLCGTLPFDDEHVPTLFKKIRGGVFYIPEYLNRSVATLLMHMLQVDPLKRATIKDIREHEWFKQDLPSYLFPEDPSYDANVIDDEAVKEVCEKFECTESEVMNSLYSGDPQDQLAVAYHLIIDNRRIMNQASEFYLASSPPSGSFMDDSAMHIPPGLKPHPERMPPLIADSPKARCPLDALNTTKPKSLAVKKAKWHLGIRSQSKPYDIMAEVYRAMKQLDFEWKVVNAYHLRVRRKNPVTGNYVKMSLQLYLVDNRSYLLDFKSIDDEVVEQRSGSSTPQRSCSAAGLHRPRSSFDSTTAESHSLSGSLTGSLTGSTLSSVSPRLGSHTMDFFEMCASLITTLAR
Chain of UniProt P15056 (whole entry, looked up): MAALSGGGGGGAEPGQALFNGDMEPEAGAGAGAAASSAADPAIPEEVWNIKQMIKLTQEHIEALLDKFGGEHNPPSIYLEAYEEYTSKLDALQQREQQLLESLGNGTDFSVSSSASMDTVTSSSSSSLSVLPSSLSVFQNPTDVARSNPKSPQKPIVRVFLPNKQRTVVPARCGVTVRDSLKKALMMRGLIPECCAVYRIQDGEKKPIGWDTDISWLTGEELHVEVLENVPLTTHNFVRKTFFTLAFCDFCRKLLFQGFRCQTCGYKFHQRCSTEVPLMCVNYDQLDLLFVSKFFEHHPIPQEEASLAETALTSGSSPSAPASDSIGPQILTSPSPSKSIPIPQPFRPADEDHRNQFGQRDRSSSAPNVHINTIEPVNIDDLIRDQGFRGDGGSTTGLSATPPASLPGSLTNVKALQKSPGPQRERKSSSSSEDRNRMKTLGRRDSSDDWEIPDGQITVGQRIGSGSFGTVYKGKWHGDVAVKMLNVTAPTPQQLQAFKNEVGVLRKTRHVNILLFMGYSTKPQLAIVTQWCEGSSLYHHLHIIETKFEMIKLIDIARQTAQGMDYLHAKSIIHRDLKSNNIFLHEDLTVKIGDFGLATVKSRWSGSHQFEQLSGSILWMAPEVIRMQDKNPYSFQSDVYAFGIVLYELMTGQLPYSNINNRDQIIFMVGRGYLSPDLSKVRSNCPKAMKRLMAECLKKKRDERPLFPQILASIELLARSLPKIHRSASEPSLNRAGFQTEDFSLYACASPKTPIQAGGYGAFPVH
Chain of UniProt Q96GX5 (whole entry, looked up): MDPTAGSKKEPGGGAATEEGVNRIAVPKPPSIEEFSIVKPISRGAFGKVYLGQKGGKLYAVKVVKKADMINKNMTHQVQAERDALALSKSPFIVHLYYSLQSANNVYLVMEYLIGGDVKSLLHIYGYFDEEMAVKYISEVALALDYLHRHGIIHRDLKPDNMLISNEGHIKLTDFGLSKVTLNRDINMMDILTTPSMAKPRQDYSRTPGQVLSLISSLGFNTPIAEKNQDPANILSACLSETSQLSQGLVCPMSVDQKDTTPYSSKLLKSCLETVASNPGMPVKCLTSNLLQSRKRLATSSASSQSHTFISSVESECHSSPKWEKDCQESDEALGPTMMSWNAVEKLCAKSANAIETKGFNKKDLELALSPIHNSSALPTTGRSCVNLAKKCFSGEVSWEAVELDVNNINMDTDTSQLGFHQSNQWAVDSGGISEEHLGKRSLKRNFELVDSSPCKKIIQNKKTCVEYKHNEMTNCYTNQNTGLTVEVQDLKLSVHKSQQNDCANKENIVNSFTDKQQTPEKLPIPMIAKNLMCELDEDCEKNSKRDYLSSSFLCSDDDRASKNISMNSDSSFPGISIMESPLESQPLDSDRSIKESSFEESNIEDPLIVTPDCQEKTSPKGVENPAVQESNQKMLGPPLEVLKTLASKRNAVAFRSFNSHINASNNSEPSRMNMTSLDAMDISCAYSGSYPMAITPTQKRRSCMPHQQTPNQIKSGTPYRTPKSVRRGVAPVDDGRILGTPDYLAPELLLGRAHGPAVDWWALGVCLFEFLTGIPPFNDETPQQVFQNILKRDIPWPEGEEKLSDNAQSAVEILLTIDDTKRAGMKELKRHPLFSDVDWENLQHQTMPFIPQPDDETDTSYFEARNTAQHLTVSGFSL

Structure (SMILES) | target or system | test | test system | conditions | scale | endpoint | value
COc1cc(CNC(=O)c2ccc3ccccc3c2)cc(Br)c1OC | rep main protease | enzyme activity, inhibitor, FRET | – | 10 µM | – | inhibition | < 0%
COc1ccc(C(=O)Nc2ccc(N3CCC4(CC3)CCN(c3ccccn3)CC4)cc2)cc1 | Alpha-synuclein, fibrils (SNCA, Homo sapiens, UniProt P37840) | radioligand binding | – | 1 µM, 50 nM protein, with: [3H]BF2846 4 nM | – | inhibition | 65%
COc1cc(-c2cc(C(C)=O)n3ccccc23)c(OC)cc1Cn1ccnc1 | SMARCA2 (Homo sapiens, UniProt P51531) | – | – | 1 µM | – | inhibition | -8.81%
COc1cc2ncnc(Nc3ccc(Oc4ccccc4)cc3C)c2cc1OC | 5'-AMP-activated protein kinase catalytic subunit alpha-2, with beta1 gamma1 (PRKAA2, Homo sapiens, UniProt P54646) | kinase activity, inhibitor | – | 1 µM | – | inhibition | 4%
O=C(NO)c1ccc(CN2CCCCc3ccccc32)c(F)c1 | ADRA1D | radioligand binding, radioligand displacement | – | 10 µM, mean of replicates | – | inhibition | 1.31%
COc1ccc(F)cc1C(=O)NCc1ccc(-c2nn([C@@H](C)C(F)(F)F)c(N)c2C(N)=O)cc1 | ULK3 (Homo sapiens, UniProt Q6PHR2) | probe binding, competitive chemoproteomics | human PBMCs | 1 µM | – | inhibition | 15.2%
CCc1oc2ccccc2c1C(=O)c1cc(Br)c(O)c(Br)c1 | SLC22A12 (Homo sapiens, UniProt Q96S37, S238A) | urate uptake | HEK293T | 0.5 µM, 10 min, 37 °C, with: 200 µM [14C]urate | – | inhibition | 50.7% and 48.6% and 44% and 50.1% and 44.6% and 47.4%
Cc1cc(-c2ccnc3[nH]cc(F)c23)cc(F)c1[C@@]1(O)[C@H](C)CN(C(=O)CN)C[C@@H]1C | STK16 (Homo sapiens, UniProt O75716) | ATP probe binding, KiNativ, measured: Lys2 site | HEK293T cell lysate | 10 µM | – | inhibition | 90.8%
COc1cc(CNC(=O)c2ccccc2)cc(Br)c1OC | rep main protease | enzyme activity, inhibitor, FRET | – | 10 µM | – | inhibition | < 0%
O=C(O)Cc1nc2ccccc2[nH]1 | Protein deacetylase HDAC6, ZnF-UBD domain (HDAC6, Homo sapiens, UniProt Q9UBN7) | – | – | – | – | Kd | > 1000 µM
CNc1cc(Oc2cc(C(=O)Nc3cc(N4CCN(C)CC4)cc(C(F)(F)F)c3)ccc2C)ncn1 | MASTL (Homo sapiens, UniProt Q96GX5) | kinase probe binding, inhibitor, KiNativ | Huh-7 | 1 µM | – | inhibition | -31.4%
CC/C(=N\NC(=O)NCc1cccc(O)c1)c1ccc(O)c(C)c1O | BRAF (Homo sapiens, UniProt P15056) | kinase activity | – | 0.1 µM | – | inhibition | 5%
O=C(C[C@@H](C(F)F)n1ccc(F)n1)N1CCC(O)(Cn2cnc3c(cnn3-c3ccc(F)cc3)c2=O)CC1 | USP7 (Homo sapiens, UniProt Q93009, V517F) | enzyme activity, inhibitor | – | 0.0005 µM | – | inhibition | 12.7% and 10.9%
CC[C@@H]1[C@H](F)C(=O)N[C@@H]1COc1nccc2cc(C(N)=O)c(OC)cc12 | CDK7 (Homo sapiens, UniProt P50613) | ATP-site probe binding, ActivX profiling | THP-1 cell lysate | 0.01 mM, Lys1 site | – | inhibition | -17%
O=C(Nc1cccc2c(=O)cc(-c3nnn[nH]3)oc12)c1ccc(OCCCCc2ccccc2)cc1 | LRRC8A/LRRC8C (Homo sapiens, UniProt Q8IWT6+Q8TDW0, M48D/T48D) | ion current, whole-cell patch clamp | HCT LRRC8-/- cells | 0.3 µM, +100 mV, T48D/M48D heteromers | – | inhibition | 2.34% and -2.2% and 0.358%
Cc1ccc(CNC(=O)c2ccccc2)cc1C | rep main protease | enzyme activity, inhibitor, FRET | – | 10 µM | – | inhibition | < 0%
COc1cc(C(=O)NS(=O)(=O)c2ccccc2C)ccc1Cc1cn(C)c2ccc(NC(=O)OC3CCCC3)cc12 | LRRC8A/LRRC8C (Homo sapiens, UniProt Q8IWT6+Q8TDW0, Y124F/Y126F) | ion current, inhibitor, whole-cell patch clamp | HCT116 LRRC8 knockout, transfected | 100 µM, +100 mV, mutant Y124F/Y126F | – | inhibition | 85.5%
Cc1cc2c(cc1N1C(=O)c3cccc4c(CCCO)ccc(c34)C1=O)n(C)c(=O)n2C (racemic) | Bromodomain and WD repeat-containing protein 1, bromodomain 2 (BRWD1, Homo sapiens, UniProt Q9NSI6) | binding, BROMOscan binding | – | 1000 nM | – | inhibition | 50%
COc1c(C#N)ccnc1N1C2CCC1CN(C(=O)c1cccnc1-n1cccn1)C2 | central benzodiazepine receptor | binding | – | 10 µM | – | inhibition | -15%
OO | Histone acetyltransferase p300, BHC core (EP300, Homo sapiens, UniProt Q09472) | enzyme activity | – | 250 µM, with: p300 BHC, with 1 mM DTT | – | inhibition | 2 ± 2%
C/C=C1/CN2CC[C@]34C(=C(C(=O)OC)[C@H]1C[C@H]23)Nc1ccc(Br)cc14 | ADRA1D | – | – | 10 µM | – | inhibition | < 50%
Oc1ccc(/C=C/c2cc(O)cc(O)c2)cc1 | α-amylase (human) | enzyme activity, inhibitor | – | 100 µM | – | inhibition | < 20%
CC(C)(C)NC(=O)C[C@H](NC(=O)C(=O)c1c[nH]c2ccccc12)C(=O)NCc1cccc(B(O)O)c1 | Proteasome component C5/PSMB8 (Homo sapiens, UniProt P20618+P28062) | β5i proteasome activity, inhibitor | PBMC | concentration not given | – | inhibition | inhibited
CC(C)[C@H](NC(=O)[C@H](Cc1ccc(O)cc1)NC(=O)[C@H](Cc1ccc(O)cc1)NC(=O)[C@@H]1CCCN1C(=O)[C@H](CCC(=O)O)NC(=O)[C@H](CCC(=O)O)NC(=O)[C@H](Cc1c[nH]c2ccccc12)NC(=O)[C@@H]1CCCN1C(=O)[C@@H](NC(=O)[C@H](CCC(N)=O)NC(=O)c1ccc2c(c1)C(=O)OC21c2ccc(O)cc2Oc2cc(O)ccc21)C(C)C)C(=O)N[C@H](C(=O)N[C@@H](CCCCN)C(=O)N[C@@H](CCCCN)C(=O)N[C@@H](CO)C(=O)N[C@@H](CO)C(=O)NCC(=O)NCC(N)=O)C(C)C | – | – | human, plasma | intravenous infusion, 100 mg, predose, day 1 | – | plasma concentration | not detected
CN(C)C1CCN(CC#Cc2nn(C3CCCC3)c3nc(NCc4ccccc4)ncc23)C1 (stereo not shown) | Cyclin-dependent kinase 7, with cyclin H, MAT1 (CDK7, Homo sapiens, UniProt P50613) | enzyme activity, inhibitor, Z'-LYTE | – | 100 nM | – | inhibition | -6%
O=C(O)CCn1cccn1 | Ubiquitin carboxyl-terminal hydrolase 13, ZnF-UBD domain (USP13, Homo sapiens, UniProt Q92995) | – | – | – | – | Kd | 98.2 µM
COc1cc(CNC(=O)c2cccs2)cc(Br)c1OC | rep main protease | enzyme activity, inhibitor, FRET | – | 10 µM | – | inhibition | < 0%
Cn1cc(-c2ccc(-c3cncc(Cl)c3N3CCC4(CCNC4=O)CC3)cc2)cn1 | COLO 205 | gene expression, microarray, measured: CDKN1C mRNA | – | concentration not given, 2 h | baseline: untreated cells | log2 fold change | 2.35

Repeated from above:
Structure (SMILES) | target or system | test | test system | conditions | scale | endpoint | value
CN(C)C1CCN(CC#Cc2nn(C3CCCC3)c3nc(NCc4ccccc4)ncc23)C1 (stereo not shown) | Cyclin-dependent kinase 7, with cyclin H, MAT1 (CDK7, Homo sapiens, UniProt P50613) | enzyme activity, inhibitor, Z'-LYTE | – | 100 nM | – | inhibition | -6%
COc1cc(C(=O)NS(=O)(=O)c2ccccc2C)ccc1Cc1cn(C)c2ccc(NC(=O)OC3CCCC3)cc12 | LRRC8A/LRRC8C (Homo sapiens, UniProt Q8IWT6+Q8TDW0, Y124F/Y126F) | ion current, inhibitor, whole-cell patch clamp | HCT116 LRRC8 knockout, transfected | 100 µM, +100 mV, mutant Y124F/Y126F | – | inhibition | 85.5%
